Experimental data collected from several papers.
Protocols differ between the studies behind these lines. Numbers after ± are the reported error.

Compound	target	assay	system	conditions	how to read	quantity	result
C/C=C(\C)C(=O)N[C@@H](CCC(N)=O)C(=O)N[C@@H]1C(=O)N[C@@H](CCC(N)=O)C(=O)N[C@H]2CC[C@@H](O)N(C2=O)[C@@H](Cc2ccccc2)C(=O)N(C)[C@@H](Cc2ccc(O)cc2)C(=O)N[C@@H](C)C(=O)O[C@@H]1C (single isomer, unassigned)	trypsin	enzyme activity, inhibitor	–	50 µg/mL, pH 7.6, 37 °C, 10 min preincubation, together with: N-α-benzoyl-DL-arginine-4-nitroanilide 1 mM	–	inhibition	no inhibition
COc1ccc(OCC2c3cc(OC(C)C)ccc3CCN2C(=O)c2cccc(Cl)c2)cc1 (racemic)	rat GluN1/GluN2D NMDA receptor	two-electrode voltage clamp	Xenopus oocytes	concentration not given, together with: EC30 glutamate and glycine	baseline: vehicle	response potentiation	3 to 10 fold
Nc1ccc2ccc(CCNCCCc3cccc(F)c3)cc2n1	Bacillus subtilis NOS chimera	nitrite production, inhibitor	–	30 µM, 4 min, 35 °C, together with: NOHA 200 µM	baseline: no inhibitor	remaining activity	6.1%
Cc1ccc(-c2c(C=C(C#N)c3cnccn3)n(CCCO)c3ncnc(N)c23)cc1	RSK1 and RSK2, human	RSK1 and RSK2 occupancy	MDA-MB-231	2 h, together with: BODIPY-FMK probe 1 h	–	EC50	~0.005 µM
O=C(O)c1cc2cc(Cl)cc(OCc3cn(CCC(=O)N4CCC(c5ccc(Cl)c(Cl)c5)CC4)nn3)c2c(Cl)c1OCc1cn(CCC(=O)N2CCC(c3ccc(Cl)c(Cl)c3)CC2)nn1	mPTPB vs other PTPs	enzyme activity, inhibitor, biochemical enzyme	–	–	baseline: 19 other PTPs over mPTPB	selectivity ratio	> 25 fold
COc1ccc(CN[C@@H]2CO[C@H](C(c3ccccc3)c3ccccc3)C[C@H]2O)cc1	GABAA receptor	radioligand binding	–	10 µM, together with: [3H]muscimol	–	inhibition	0.6%
CC(C)(NC(=O)Nc1ccc(Cl)cc1)c1cccc(C(=N)NO)c1	IMPDH 2, Staphylococcus aureus, Y446C	–	–	–	baseline: mutant over wild type	apparent Ki ratio	300
C#CCCCN1C(=O)[C@@]2(CN2[S@@+]([O-])C(C)(C)C)c2ccccc21 (some centres unmarked)	MYC	reporter gene, inhibitor, luciferase reporter	HEK-293T	24 h	–	EC50	4.5 µM
CC1CCN(Cc2cc(Cl)c3cccnc3c2O)CC1	Kir1.1 (ROMK)	thallium flux	–	–	baseline: Kir7.1 over Kir1.1	selectivity ratio	6 fold
CC(=NO)c1cccc(C(C)(C)NC(=O)Nc2ccc(Cl)c(-c3nc(C(F)(F)F)cs3)c2)c1	IMPDH 2, Staphylococcus aureus, G445S	–	–	–	baseline: mutant over wild type	apparent Ki ratio	320
Cc1cc(N)nc(-c2ccc(CNCCc3cccc(F)c3)cc2)c1	Bacillus subtilis NOS chimera	nitrite production, inhibitor	–	30 µM, 4 min, 35 °C, together with: NOHA 200 µM	baseline: no inhibitor	remaining activity	13.2%
CC(C)(NC(=O)Nc1ccc(Cl)c(-c2nc(C(F)(F)F)cs2)c1)c1cccc(C(N)=NO)c1	IMPDH 2, Staphylococcus aureus, G445S	–	–	–	baseline: mutant over wild type	apparent Ki ratio	190
CCCN(CCN1CCN(c2nccc3ccccc23)CC1)[C@H]1CCc2nc(N)sc2C1	dopamine D3 receptor, mouse	agonist	D2 receptor knockout mouse, nucleus accumbens membranes	–	–	Hill coefficient	0.85 ± 0.1
COC(=O)[C@@H](CS)N1C(=O)c2ccc(N(C)C)cc2C1=O	NDM metallo-beta-lactamase variants	probe	–	fully metalated active site	baseline: probe alone	fluorescence increase	17 to 18 fold

A few entries again:
Compound	target	assay	system	conditions	how to read	quantity	result
Cc1cc(N)nc(-c2ccc(CNCCc3cccc(F)c3)cc2)c1	Bacillus subtilis NOS chimera	nitrite production, inhibitor	–	30 µM, 4 min, 35 °C, together with: NOHA 200 µM	baseline: no inhibitor	remaining activity	13.2%
CC(=NO)c1cccc(C(C)(C)NC(=O)Nc2ccc(Cl)c(-c3nc(C(F)(F)F)cs3)c2)c1	IMPDH 2, Staphylococcus aureus, G445S	–	–	–	baseline: mutant over wild type	apparent Ki ratio	320
